Measured values gathered from unrelated publications.
Each numbered part is a random draw from the data of one study; scales do not carry over between parts.

Sample 1
Target: RNA binding protein fox-1 homolog 2, RRM domain, GST-SBP tag (RBFOX2, Homo sapiens, UniProt O43251-10, residues 100-194)
Technique: RNA Bind-n-Seq
Form: RNA
Sample: in vitro
Concentration: 365 nM
Setting: natural RNA segment, single round, ends assumed
Relative to: no-protein control
Reading: higher = stronger binding
Endpoint: RBNS enrichment (R)
All sequences stand within: GGGAGUUCUACAGUCCGACGAUC … UGGAAUUCUCGGGUGCCAA
Target sequence (chain): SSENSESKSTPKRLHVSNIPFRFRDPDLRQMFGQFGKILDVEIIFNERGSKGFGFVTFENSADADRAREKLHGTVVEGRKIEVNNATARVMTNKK
Sequence = CCGAGCUGCCGACUGGAGGGACGUGUCGGAGCUUCUCAAGCCUCUUGGUCUCUACGAUCUCCGUGCAAAAACCAUUAUCAAGUUCUCAGAUGAAUAUCUGACAAAGCAGU; result = 0.55
Sequence = GACAGAAAUUACCAUUUAGUUUCUUAAAUGUAAAAAAAGAAAACCCACAAAAGACUCAACAAAAUUAGACCACAAAAUUUGCAUUGUUCAUUGUAGCACUAUUGGUAAUA; result = 1.02
Sequence = CCAAGCACUUGUGCAACUUGGAAAAACAGACUUGGGUUGUGGGAACAGUUGACAGCGUUCUGAAAAGAUGCCAUUUGUUUCCUUCUGAUCUCUCACUGAAUAAUGUUUAC; result = 0.305
Sequence = AAAGUUAGAGUGCUGUAGUUAUGAAGUCAUACAUUUUUGAUAAAAUACCUGUGGAAAACCAGGGAUCCUCUCCUGUUUCUCUCUCUUGCCUCCCCCUUUCCCUCCAUUCC; result = 0.675
Sequence = AUUUUAACUAGUGAACAUAAGGACAAUUUGCCUCAAUAGAAGACCAACAACCCCAUCAUGGAAUAUCACAGAAAUUCUUUUGGAUAACAAUUUGUUCCAACUUUAAUCCA; result = 0.405
Sequence = UCCUAGGUGUGGACGCCCGCCUUGCCCUUUGUUAGCUUCCUGGGUUCCCAUGAACUCAGGGAUUUGUUGGAAGAUUCUCUGCAUAAUAGAUAUAUAUGUAUAUAUAUUUA; result = 0.857
Sequence = UGGAUACAAUAGGUUAAGGCCCAAGAUGUUUGAAAUGAAUGCAAUAUUAAUAGAUGCAUAUAUACAUGACAUAUUGUGGUUAAUUUUAAAACUACUGUGCCUUAACGUGU; result = 0.571
Sequence = AAAAUCUAACUUUGAUUAAUUAAGUACAGGGUUAUUGCUGAUAGCCUCAUAACUCUACCACCAUUAUAAUGGAUCUAUAUAAAAUUGCUUAAUAUCAGUAGCCUAAAUUU; result = 0.408

Sample 2
Target: RING finger protein unkempt homolog, zinc fingers 1-6, GST-SBP tag (UNK, Homo sapiens, UniProt Q9C0B0, residues 30-357)
Technique: RNA Bind-n-Seq
Form: RNA
Sample: in vitro
Concentration: not given
Setting: RNA with constant flanks, human and mouse sites, ends assumed
Relative to: input RNA pool
Reading: higher = stronger binding
Endpoint: bound/input enrichment
All sequences stand within: GGGAGUUCUACAGUCCGACGAUC … CAACAGAGGAUUGAGCAUCA
Construct (chain): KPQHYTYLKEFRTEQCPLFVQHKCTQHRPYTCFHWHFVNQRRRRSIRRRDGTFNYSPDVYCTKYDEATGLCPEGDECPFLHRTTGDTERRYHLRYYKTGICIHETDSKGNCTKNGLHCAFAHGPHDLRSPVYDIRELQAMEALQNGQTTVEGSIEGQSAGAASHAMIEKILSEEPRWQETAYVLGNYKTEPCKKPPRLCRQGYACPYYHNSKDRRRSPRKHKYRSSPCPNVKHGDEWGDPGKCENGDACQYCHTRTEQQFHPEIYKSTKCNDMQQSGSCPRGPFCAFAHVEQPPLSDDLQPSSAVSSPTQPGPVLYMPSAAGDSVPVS
Sequence = GCAAAUUUUGCCAGGAACGAUGGAAAUUGUAUUCAUAUGGUAGACAAUGGGAUUGUAGAAAAACUCAUGGAUUUGCUGGACAGACACGUAGAAGACGGGAACGUGACGGUGCAGCACGCC; result = 0.317 ratio
Sequence = ACGCUGCCGCUGCUGAGGCAGACCUCCACCAAGGCAGUCCAGCACUUCUACAACAUCAAACUCGAAGGCAAAGUGCCCAUGCACAAACUUUUUUUGGAAAUGCUGGAGGCCAAGGUCUGA; result = 0.0827 ratio
Sequence = UUAUUUUACUCAGUUUUGAAAUGAUUUUUUUACUGGCUCUAUUGCCUUAAAAUAACUAAGAGAUUAAUGAUUCUUUGUAUAAUUUUCCUUUUCUUUGUUCUUUUUUUUACAUUUCGCAGA; result = 0.349 ratio
Sequence = CUGUACUGUGGAAUAGCUUCUCCAGCAAUGAUUACUUCAGAGUUACCAGUGUUACAGGAUUCAACUAAUGAAACUACUGCCCACUCUGAUGCUGGCAGCGAACUUGAAGAAACAGAGGUC; result = 0.112 ratio
Sequence = CAUAAGCAUGAUUUGGAUCUUAUAUGUAGAGCCCAUCAGGUGGUUGAAGAUGGAUAUGAAUUUUUUGCAAAGAGGCAGUUGGUCACUCUGUUUUCUGCGCCCAAUUAUUGCGGAGAGUUU; result = 0.846 ratio
Sequence = CACUUGUAUGAAAUAUUCCCUGCAGAGUGAGCAGGAAAUAGGAACAAAGGAAUGGAAUGCUUAGUGGUGGUGGGGGUGCUAUGGGGGGUGGGUGGGAGAGUUGCAGACUUGAGGAGGUUU; result = 0.661 ratio
Sequence = UGAAGGAGUCCCAGAAGCUGCACUAUGUUGUGACUGAAGUUCAAGGCCCCAGCAUUACCGUGGAGUUCUCUGAUUGCAAAGCUUCUCUCCAGCUUCCGAUGGAAAAGGCCAUUGAGACCG; result = 0.0968 ratio
Sequence = GUUUCUCCAGAGGAAGCAAUCAAAUGUGAAGACAAAUUCACAAAAUCCAAAACUGUUUAUAGCAUUCUUCGUCAUGUUGCUGAGGUGUUAGAAUACACCAAGGAUGAGCAGCUGGAAAGC; result = 0.151 ratio

Sample 3
Target: Ras GTPase-activating protein-binding protein 1, C-terminal RGG region (G3BP1, Homo sapiens, UniProt Q13283)
Chain of UniProt Q13283 (whole entry, looked up): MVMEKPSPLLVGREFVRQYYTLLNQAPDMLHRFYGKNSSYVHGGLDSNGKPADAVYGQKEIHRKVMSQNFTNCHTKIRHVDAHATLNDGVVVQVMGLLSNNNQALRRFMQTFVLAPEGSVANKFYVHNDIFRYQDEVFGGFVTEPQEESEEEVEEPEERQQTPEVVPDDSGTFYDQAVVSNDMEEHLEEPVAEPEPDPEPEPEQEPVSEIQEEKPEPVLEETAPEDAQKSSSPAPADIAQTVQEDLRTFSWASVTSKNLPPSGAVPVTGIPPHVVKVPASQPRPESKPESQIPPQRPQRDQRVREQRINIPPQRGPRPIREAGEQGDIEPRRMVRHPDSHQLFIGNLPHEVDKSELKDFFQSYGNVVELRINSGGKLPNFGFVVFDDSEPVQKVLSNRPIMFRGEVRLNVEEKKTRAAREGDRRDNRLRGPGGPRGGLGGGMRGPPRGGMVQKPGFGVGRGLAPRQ
Technique: RNA Bind-n-Seq
Form: RNA
Sample: in vitro
Concentration: 1 µM
Setting: whole 134-nt RNA, ends assumed
With: 150 mM KCl
Relative to: input library
Reading: higher = stronger binding
Endpoint: log2 enrichment
All sequences stand within: GGGAGUUCUACAGUCCGACGAUC … UGGAAUUCUCGGGUGUCAAGG
Sequence = AAGUCCUGUGCUACACAUCGUAUGUACCGAAUCGGCCCCCGGCCCCCGGCCCCCGGGAAAGUAUUAUGUUACGCCGUUCGGAUCUGCACU; result = -1.77
Sequence = ACCAUGCAGGUGGGCAUCUUUGGGAAGUGGGGCAAGGGGGGGAUAGGGAGGGGGGUAACACUUUGGGAACAGCUGGUCCCAGGUCGUUUC; result = 2.13
Sequence = GUCCUGUGCUACACAUCGUAUGUACCGAAUCAAACCCAAAUUUUUUUAAACCCCCAAAAAAGUAUUAUGUUACGCCGUUCGGAUCUGCAC; result = -0.859
Sequence = GUCCUGUGCUACACAUCGUAUGUACCGAAUCAAAUUUUUAAAUUUUUAAAUUUUUAAAAAAGUAUUAUGUUACGCCGUUCGGAUCUGCAC; result = -2.32
Sequence = UCAAGUCCUGUGCUACACAUCGUAUGUACCGAAUCGGUUUUUGGAAAGGUUUGGAAAGUAUUAUGUUACGCCGUUCGGAUCUGCACUUCC; result = -1.3
Sequence = UAACUUUAGAGGAGGAUCUGAUGGAUAUGGCAGUGGACGUGGAUUUGGGGAUGGCUAUAAUGGGUAUGGAGGAGGACCUGCAGGUGGCAA; result = -1.08
Sequence = UGGCCCUGGUGGCAUGCGGGGAGGAAGAGGUAGCCUCAUGGAUCGUGGUGGUCCCGGUGGAAUGUUCAGAGGUGGCCGUGGUGGAGACAG; result = 1.76
Sequence = CCUCAAGUCCUGUGCUACACAUCGUAUGUACCGAAUCGGGUGGGUGGGGUGGGAAAGUAUUAUGUUACGCCGUUCGGAUCUGCACUUCCA; result = 2.02
Sequence = GUCCUGUGCUACACAUCGUAUGUACCGAAUCGGGGAAAAAAGGAAAAAAGGAAAAAAGGAAAGUAUUAUGUUACGCCGUUCGGAUCUGCA; result = -1.57

Sample 4
Target: Phosphate system positive regulatory protein PHO4, full length, GST-tagged (PHO4, Saccharomyces cerevisiae, UniProt P07270, residues 1-312)
Technique: competition protein-binding microarray
Form: double-stranded DNA, one strand shown
Sample: in vitro
Concentration: 2 µM
Setting: whole 60-bp probe, lowest competitor level
With: Cbf1 competitor, 0.05 µM
Reading: higher = stronger binding
Endpoint: fluorescence intensity
All sequences stand within: … GTCTTGATTCGCTTGACGCTGCTG
Target sequence (chain): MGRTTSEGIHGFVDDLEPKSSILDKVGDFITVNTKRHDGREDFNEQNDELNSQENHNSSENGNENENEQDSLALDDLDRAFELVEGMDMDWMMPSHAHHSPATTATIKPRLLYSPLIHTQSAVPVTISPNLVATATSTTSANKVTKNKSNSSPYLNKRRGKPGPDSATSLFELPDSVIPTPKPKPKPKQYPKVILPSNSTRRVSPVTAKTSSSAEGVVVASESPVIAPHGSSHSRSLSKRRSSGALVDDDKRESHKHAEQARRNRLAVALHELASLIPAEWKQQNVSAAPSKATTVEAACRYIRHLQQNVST
Sequence = AACGCGTCTTAAAAGAATGTGACAGGAGATGGGATG; result = 5220 a.u.
Sequence = GGTTTTCTTTTTTGGAATGTGATATATATACATATT; result = 5910 a.u.
Sequence = GAGATACTTAAGCATCATGTGATGGTTTTGACACAA; result = 6660 a.u.
Sequence = GTCTTGTCTCATTGTCGCGTGGGTGTCCCCACTTCA; result = 8290 a.u.
Sequence = AGCGGAGTTTCGAATTCCGTGTCCTTCTGAGCGTAT; result = 3890 a.u.
Sequence = CATACCCAACCTTGTTAAGTGGGTGAAGATATTTGT; result = 3610 a.u.
Sequence = AAATTACTAAGTTGATTTGTGGGTGACGCCGTATGA; result = 3790 a.u.
Sequence = GAACAACTGTATTGCCACATGGGCAGACCAGATCGG; result = 10700 a.u.
Sequence = CTAACGAAGGTTTTTCACGTGCGTTACAAGCCAAGT; result = 14500 a.u.
Sequence = CGACTGAAAAACTCAAACGTGCTTTACCGCCAAGCA; result = 11700 a.u.
Sequence = CTGGTAAGTTTTTGGCCTGTGCGGGTTCATAAGGGA; result = 4410 a.u.
Sequence = CTTTCCCGATCTTGTCACGGTACTTTAGCACATTTG; result = 5030 a.u.
Sequence = CATACCCAACCTTGCTTCGTGGGTGAAGATATTTGT; result = 7080 a.u.
Sequence = GAGTGCTCAGAAAACCCCGTGGATTACCCAACGGTC; result = 7050 a.u.
Sequence = ATGAAACCACTTTAGCACGATGAAATAGCAATATGT; result = 8660 a.u.
Sequence = GTCTTGTCTCATTTTCACGTGATCTTCCCCACTTCA; result = 11800 a.u.
Sequence = TCCAATCTTTTCCGTCACATGTACACACTCATATAC; result = 9810 a.u.
Sequence = TCTAACCAATTGTTCCCCGTGAGATGCTTTCTCTGA; result = 5060 a.u.
